Literature values, collected from citations in different studies.
± gives the spread as reported. Values after ≈ are worked out from the molar mass of the structure shown.
Sequence of UniProt Q05941 (whole entry, looked up): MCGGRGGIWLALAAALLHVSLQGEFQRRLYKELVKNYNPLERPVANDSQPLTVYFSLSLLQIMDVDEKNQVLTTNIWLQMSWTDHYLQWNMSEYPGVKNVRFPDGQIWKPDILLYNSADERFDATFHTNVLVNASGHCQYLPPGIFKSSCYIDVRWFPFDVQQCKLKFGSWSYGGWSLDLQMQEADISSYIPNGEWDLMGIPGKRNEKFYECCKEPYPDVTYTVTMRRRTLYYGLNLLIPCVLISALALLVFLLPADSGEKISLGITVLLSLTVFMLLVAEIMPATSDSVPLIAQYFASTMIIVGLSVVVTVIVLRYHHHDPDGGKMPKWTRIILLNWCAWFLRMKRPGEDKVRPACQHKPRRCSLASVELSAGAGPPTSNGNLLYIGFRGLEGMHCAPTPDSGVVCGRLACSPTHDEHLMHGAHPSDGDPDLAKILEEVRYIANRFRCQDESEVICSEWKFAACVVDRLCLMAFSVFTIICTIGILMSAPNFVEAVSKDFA

NC1CCCCC1N.O=C([O-])C(=O)[O-].[Pt+2] (centres unmarked)
AUC (measured: total platinum; mouse, plasma; intravenous, 8.34 mg Pt/kg): 9830 ng·h/mL

Cc1nnc2n1-c1ccc(Cl)cc1C(c1ccccc1Cl)=NC2
Km (CYP3A4; substrate, measured: 4-hydroxy metabolite formation): 145 µM

COC(=O)[C@H](c1ccccc1)[C@H]1CCCCN1
Tmax (human, CES1 wild type, plasma; oral, 10 mg methylphenidate, single dose, median): 2 h

FC(F)(F)C(F)(F)C(F)(F)C(F)(F)C(F)(F)C(F)(F)CCI
IC50 (CYP2C9; inhibitor; Tox21 screening): inactive

CCCCCOc1ccc(-c2ccc(-c3ccc(C(=O)N[C@H]4C[C@@H](O)[C@@H](O)NC(=O)[C@@H]5[C@@H](O)[C@@H](C)CN5C(=O)[C@H]([C@@H](C)O)NC(=O)[C@H]([C@H](O)[C@@H](O)c5ccc(O)cc5)NC(=O)[C@@H]5C[C@@H](O)CN5C(=O)[C@H]([C@@H](C)O)NC4=O)cc3)cc2)cc1
volume of distribution (healthy volunteers; 200 mg day 1 then 100 mg days 2-4): 40.1 ± 9.6 L

CCN(CC)C(=O)/C(C#N)=C/c1cc(O)c(O)c([N+](=O)[O-])c1
fraction unbound (mouse): 0.026

CN1CCc2[nH]c3ccccc3c2CC1.O=C(O)/C=C/C(=O)O
Hill coefficient (Chrna7 (Rattus norvegicus, UniProt Q05941); inhibitor; added: 100 µM acetylcholine): 1.6 ± 0.1

FC(F)OC(F)(F)C(F)Cl (centres unmarked)
IC50 (CYP1A2; inhibitor; Tox21 screening): 35500 nM

CN(C)CCC=C1c2ccccc2C=Cc2ccccc21
fraction unbound (mouse): 0.0034

FC1(F)C(F)(F)C(F)(F)C2(F)C(F)(C1(F)F)C(F)(F)C(F)(F)C1(F)C(F)(F)C(F)(F)C(F)(F)C(F)(F)C12F (centres unmarked)
IC50 (CYP3A4; inhibitor; Tox21 screening): inactive

CNCCC=C1c2ccccc2CCc2ccccc21
fraction unbound (dog): 0.007

CCCCCCCOC(=O)NC1=NC(=O)N([C@H]2C[C@H](O)[C@@H](CO)O2)CN1
tolerability (HIV-1; human; dose not given, clinical trials): not toxic

COC(=O)[C@@H]1C[C@H](OC(C)=O)C(=O)[C@H]2[C@@]1(C)CC[C@H]1C(=O)O[C@H](c3ccoc3)C[C@]21C
Ki (kappa opioid receptor F214A): 1 ± 0.1 nM

COCCOC(=O)C1=C(C)NC(C)=C(C(=O)OC(C)C)C1c1cccc([N+](=O)[O-])c1 (centres unmarked)
fraction unbound (human): 0.008

c1ccc2c(c1)Cc1ccccc1-2
water solubility (experimental mean): 15.5 µM (≈ 2.58 µg/mL)

O=C(O)C(F)(F)C(F)(F)C(F)(F)C(F)(F)C(F)(F)C(F)(F)C(F)(F)C(F)(F)F
IC50 (CYP3A4; inhibitor; Tox21 screening): inactive

CCCCN1CCCCC1C(=O)Nc1c(C)cccc1C (centres unmarked)
fraction unbound (mouse): 0.274

O=C(NC1CCCCC1)c1cn(Cc2ccc(F)cc2)c2nc(Cl)ccc2c1=O
Ki (CB1 receptor; binding): 495 nM

O=C(O)[C@@H](c1ccccc1)[C@@H]1CCCCN1
AUC(0-inf) (human, CES1 wild type, plasma; oral, 10 mg methylphenidate, single dose after breakfast, median): 534 ng·h/mL

COc1cccc2c3c(=O)n(C4C5(C)CCC(C5)C4(C)C)ccc3n(CCN3CCOCC3)c12 (centres unmarked)
Ki (CB1 receptor; binding): 16 nM

CC(C)C[C@H]1C(=O)N2CCC[C@H]2[C@]2(O)O[C@](NC(=O)[C@@H]3C=C4c5cccc6[nH]c(Br)c(c56)C[C@H]4N(C)C3)(C(C)C)C(=O)N12
fraction unbound (mouse): 0.002

O=C(O)C(F)(F)C(F)(F)C(F)(F)C(F)(F)C(F)(F)F
IC50 (CYP2D6; inhibitor; Tox21 screening): inactive

COC(=O)C1=C(C)NC(C)=C(C(=O)OCCN(C)Cc2ccccc2)C1c1cccc([N+](=O)[O-])c1 (centres unmarked)
fraction unbound (dog): 0.006

O=S(=O)([O-])C(F)(F)C(F)(F)C(F)(F)C(F)(F)C(F)(F)C(F)(F)F.[K+]
activity (CYP3A4; concentration not given): inactive

CCCCCc1cc(O)c2c(c1)OC(C)(C)c1ccc(C)cc1-2
inhibition (CYP2C9, human; enzyme activity, inhibitor; human liver microsomes; 10 µM): inhibited

N.O=C(O)C(F)(F)C(F)(F)C(F)(F)C(F)(F)C(F)(F)C(F)(F)C(F)(F)F
IC50 (CYP3A4; inhibitor; Tox21 screening): inactive

Cc1ncc2n1-c1ccc(Cl)cc1C(c1ccccc1F)=NC2
Vd (human): 100 to 150 L

O=C(NC(=O)c1c(F)cccc1F)Nc1cc(Cl)c(OC(F)(F)C(F)F)c(Cl)c1
IC50 (CYP1A2; inhibitor; Tox21 screening): 31500 ± 15700 nM

Cc1c(C(=O)NN2CCCCC2)nn(-c2ccc(Cl)cc2Cl)c1-c1ccc(Cl)cc1
fraction unbound (dog): 0.0005

A few entries again:
O=C(O)C(F)(F)C(F)(F)C(F)(F)C(F)(F)C(F)(F)C(F)(F)C(F)(F)C(F)(F)F
IC50 (CYP3A4; inhibitor; Tox21 screening): inactive

CCCCN1CCCCC1C(=O)Nc1c(C)cccc1C (centres unmarked)
fraction unbound (mouse): 0.274
